Measured values gathered from unrelated publications.
Lines come from different studies, so protocols differ. “And” joins repeats or separate records; there may be more than shown. ± marks the error that the study gave.

With `O=C1NC(=O)c2c1c1cc(F)c[n+]3c1c1c2c2cc(O)ccc2[n]1[Ru-4]312([N]=C=S)[S+]3CC[S+]1CC[S+]2CC3` (centres unmarked) the remaining activity was 117% (EPHB2 (Homo sapiens, UniProt P29323); enzyme activity; 100 nM, human enzyme, together with: 10 µM ATP; relative to: untreated).
`O=[N+]([O-])CC(c1ccco1)c1c(-c2ccccc2)[nH]c2ccccc12` (centres unmarked) gave an Emax of 67 ± 3.85% (CNR1 (Homo sapiens, UniProt P21554, V249A); Gαi1-γ2 dissociation, BRET).
`CS(C)(=O)=Nc1ccc(-c2ccc(-c3nc4cc(O[C@@H]5CO[C@H]6[C@@H]5OC[C@H]6O)[nH]c4cc3F)cc2)cc1` gave an inhibition of 14% (TLK2 (Homo sapiens, UniProt Q86UE8); enzyme activity, inhibitor; 10 µM).
`Cc1sc2c(c1C)C(c1ccc(Cl)cc1)=NC(CC(=O)OC(C)(C)C)c1nnc(C)n1-2` (centres unmarked) gave an inhibition of -23% (TACR3 (Homo sapiens, UniProt P29371); ligand displacement, radioligand; 1 µM).
For `Nc1ccc(/C=C/C(=O)N2CCc3c(oc4c(-c5ccc(F)cc5)cc(-c5ccc(C(=O)N6CCC(F)(F)CC6)cn5)cc34)C2)cn1`, the remaining binding was 93% (PIM1 (Homo sapiens, UniProt P11309); binding, competition with immobilised ligand; 1 µM).
`CCCCCn1cc(C(=O)c2cccc3c2CC(C)(C)C3)c2ccccc21` — result for “bias factor (ΔΔlog(Emax/EC50))”: -0.64 (CNR2 (Homo sapiens, UniProt P34972); agonist, BRET; relative to: Gαi1 over β-arrestin 2, reference agonist).
For `CC(C)[C@H](NC(=O)[C@@H](N)CC(=O)O)C(=O)N[C@@H](CC(=O)O)C(=O)O`, the kon was 2.25 ± 400 M⁻¹ s⁻¹ (dppA (Mycobacterium tuberculosis, UniProt I6X811); pH 7.4).
With `N[C@H](C(=O)N1CCCC1)C1CCN(c2nccc3c(-c4ncc(Cl)cc4Cl)cccc23)CC1` the kcat was 2.12 s⁻¹ and 2.09 s⁻¹ (PADI4 (Homo sapiens, UniProt Q9UM07); enzyme activity; 0.006291 µM, high-affinity site, together with: Ca2+ 1.5 mM).
`CC(C)[C@H]1NC(=O)C[C@H]2/C=C/CCSSC[C@@H](NC1=O)C(=O)N[C@H](Cc1cccc3ccccc13)C(=O)NCC(=O)O2` gave an inhibition of -6.9% (EPHA1 (Homo sapiens, UniProt P21709); enzyme activity, inhibitor; 10 µM).
For `CONC(=O)[C@H]1[C@@H](O)[C@@]2(O)c3c(OC)cc(OC)cc3O[C@@]2(c2ccc(OC)cc2)[C@@H]1c1ccccc1`, translation inhibition read “inhibited” (cap-dependent firefly luciferase translation; Krebs-2 cell extract; concentration not given, (AG)10-containing reporter).
`CN(C)[C@H]1C[C@@]23CC[C@@]4(O2)C(=CC[C@]2(C)[C@@H](c5ccc6ccncc6c5)CC[C@H]24)C=C3[C@@H](O)[C@@H]1O` gave an inhibition of -1.4% (LATS2 (Homo sapiens, UniProt Q9NRM7); ATP probe labelling, inhibitor, KiNativ profiling; 1 µM).

Repeated from above:
`CCCCCn1cc(C(=O)c2cccc3c2CC(C)(C)C3)c2ccccc21` — result for “bias factor (ΔΔlog(Emax/EC50))”: -0.64 (CNR2 (Homo sapiens, UniProt P34972); agonist, BRET; relative to: Gαi1 over β-arrestin 2, reference agonist).
